Measurements of several laboratories.
Protocols differ between the studies behind these lines. Values joined by “and” are separate records of one study, mostly repeats; a detail may differ. Numbers after ± are the reported error.
Chain of UniProt P37288 (whole entry, looked up): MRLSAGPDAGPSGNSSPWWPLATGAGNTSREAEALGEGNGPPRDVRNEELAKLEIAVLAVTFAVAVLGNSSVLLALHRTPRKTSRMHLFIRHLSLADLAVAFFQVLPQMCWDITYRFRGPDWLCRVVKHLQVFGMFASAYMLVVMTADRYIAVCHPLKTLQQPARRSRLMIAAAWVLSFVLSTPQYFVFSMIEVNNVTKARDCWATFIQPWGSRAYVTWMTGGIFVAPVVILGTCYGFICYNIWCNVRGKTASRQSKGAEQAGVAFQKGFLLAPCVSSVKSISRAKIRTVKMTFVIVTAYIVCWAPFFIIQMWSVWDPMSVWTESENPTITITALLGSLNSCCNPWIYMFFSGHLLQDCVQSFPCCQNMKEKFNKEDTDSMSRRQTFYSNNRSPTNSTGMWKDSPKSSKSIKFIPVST
Chain of UniProt Q06187 (whole entry, looked up): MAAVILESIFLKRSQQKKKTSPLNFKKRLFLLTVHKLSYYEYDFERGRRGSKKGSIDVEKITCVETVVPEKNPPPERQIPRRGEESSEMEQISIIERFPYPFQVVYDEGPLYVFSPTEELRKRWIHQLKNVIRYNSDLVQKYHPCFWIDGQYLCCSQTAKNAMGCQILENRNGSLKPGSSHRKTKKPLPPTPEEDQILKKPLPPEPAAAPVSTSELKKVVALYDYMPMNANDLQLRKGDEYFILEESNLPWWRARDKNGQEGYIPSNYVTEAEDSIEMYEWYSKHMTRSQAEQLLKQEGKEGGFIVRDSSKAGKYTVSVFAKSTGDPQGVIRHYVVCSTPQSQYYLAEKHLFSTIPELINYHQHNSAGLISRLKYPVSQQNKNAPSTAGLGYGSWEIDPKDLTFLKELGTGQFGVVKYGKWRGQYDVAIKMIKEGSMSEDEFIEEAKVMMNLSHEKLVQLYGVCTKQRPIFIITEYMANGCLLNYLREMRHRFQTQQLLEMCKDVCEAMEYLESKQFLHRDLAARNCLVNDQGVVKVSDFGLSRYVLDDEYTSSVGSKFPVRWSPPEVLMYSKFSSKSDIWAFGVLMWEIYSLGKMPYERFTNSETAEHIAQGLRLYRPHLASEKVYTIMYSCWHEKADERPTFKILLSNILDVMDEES
Chain of UniProt P41146 (whole entry, looked up): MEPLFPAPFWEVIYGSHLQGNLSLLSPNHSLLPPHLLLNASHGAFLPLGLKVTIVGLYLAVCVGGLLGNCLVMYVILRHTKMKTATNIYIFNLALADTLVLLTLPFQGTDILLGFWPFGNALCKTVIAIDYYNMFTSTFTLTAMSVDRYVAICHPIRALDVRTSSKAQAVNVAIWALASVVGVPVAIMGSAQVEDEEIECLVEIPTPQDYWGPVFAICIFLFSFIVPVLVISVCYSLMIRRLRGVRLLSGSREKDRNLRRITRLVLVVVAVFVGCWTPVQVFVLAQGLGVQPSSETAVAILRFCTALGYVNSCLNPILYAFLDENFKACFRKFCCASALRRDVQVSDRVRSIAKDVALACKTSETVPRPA
Chain of UniProt Q99720 (whole entry, looked up): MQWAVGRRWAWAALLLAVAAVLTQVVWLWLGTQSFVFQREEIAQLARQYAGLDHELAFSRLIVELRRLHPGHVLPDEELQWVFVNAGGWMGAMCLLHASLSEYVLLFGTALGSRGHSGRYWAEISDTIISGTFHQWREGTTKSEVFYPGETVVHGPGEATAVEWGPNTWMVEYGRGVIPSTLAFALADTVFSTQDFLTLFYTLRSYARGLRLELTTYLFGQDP
Chain of UniProt O15218 (whole entry, looked up): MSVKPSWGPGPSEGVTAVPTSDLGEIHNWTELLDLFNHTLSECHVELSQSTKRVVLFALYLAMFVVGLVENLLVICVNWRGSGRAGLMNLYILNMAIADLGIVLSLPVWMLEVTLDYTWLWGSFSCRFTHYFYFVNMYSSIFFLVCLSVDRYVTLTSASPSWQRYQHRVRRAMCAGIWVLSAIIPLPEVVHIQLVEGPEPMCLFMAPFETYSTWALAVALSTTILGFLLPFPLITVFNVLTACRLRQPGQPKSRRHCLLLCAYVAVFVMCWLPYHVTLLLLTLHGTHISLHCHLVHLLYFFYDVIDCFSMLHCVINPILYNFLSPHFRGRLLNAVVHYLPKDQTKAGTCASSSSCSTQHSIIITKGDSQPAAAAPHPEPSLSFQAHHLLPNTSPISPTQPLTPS
Chain of UniProt P35232 (whole entry, looked up): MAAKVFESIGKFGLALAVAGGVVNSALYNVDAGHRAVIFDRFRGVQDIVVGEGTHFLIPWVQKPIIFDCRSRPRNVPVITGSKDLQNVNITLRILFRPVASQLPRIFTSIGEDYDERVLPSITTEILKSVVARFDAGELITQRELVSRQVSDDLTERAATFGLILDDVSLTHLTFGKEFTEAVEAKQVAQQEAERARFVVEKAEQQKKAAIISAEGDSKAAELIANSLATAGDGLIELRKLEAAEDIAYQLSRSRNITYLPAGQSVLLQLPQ
Chain of UniProt O75884 (whole entry, looked up): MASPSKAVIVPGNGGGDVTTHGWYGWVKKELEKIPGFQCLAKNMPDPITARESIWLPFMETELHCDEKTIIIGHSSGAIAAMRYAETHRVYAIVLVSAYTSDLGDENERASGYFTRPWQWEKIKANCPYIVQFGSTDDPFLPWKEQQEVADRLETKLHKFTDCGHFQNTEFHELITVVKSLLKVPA
Chain of UniProt P07947 (whole entry, looked up): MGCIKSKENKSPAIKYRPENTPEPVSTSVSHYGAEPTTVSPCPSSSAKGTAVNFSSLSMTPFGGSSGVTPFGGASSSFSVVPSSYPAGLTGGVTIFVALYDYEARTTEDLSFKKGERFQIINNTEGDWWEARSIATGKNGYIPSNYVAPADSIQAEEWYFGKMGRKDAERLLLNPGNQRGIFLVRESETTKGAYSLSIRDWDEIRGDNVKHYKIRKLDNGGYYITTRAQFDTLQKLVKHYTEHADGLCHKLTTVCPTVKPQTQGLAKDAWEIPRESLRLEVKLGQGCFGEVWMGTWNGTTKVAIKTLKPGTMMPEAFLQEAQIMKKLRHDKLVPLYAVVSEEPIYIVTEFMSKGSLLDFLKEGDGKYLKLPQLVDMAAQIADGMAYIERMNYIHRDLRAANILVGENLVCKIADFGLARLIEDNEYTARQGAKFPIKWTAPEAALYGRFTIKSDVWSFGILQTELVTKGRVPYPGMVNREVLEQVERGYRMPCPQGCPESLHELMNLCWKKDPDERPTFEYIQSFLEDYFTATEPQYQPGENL

| SMILES | target or system | assay | test system | conditions | how to read | quantity | value |
| --- | --- | --- | --- | --- | --- | --- | --- |
| CCCCN1CCC(COC(=O)c2ccc(N)c(O[11CH3])c2)CC1 |  | 5-HT4 receptor binding, PET | rhesus monkey (Macaca mulatta), brain hippocampus | dose not given, baseline scan, unit not given | reference: cerebellum reference region | binding potential BPND | 0.48 ± 0.06 |
| CC[C@H](C)[C@H](NC(=O)CNC(=O)[C@@H](N)CCCCN)C(=O)N[C@@H](CC(C)C)C(=O)N[C@@H](CCCCN)C(=O)N[C@@H](CCCNC(=N)N)C(=O)N[C@@H](CCC(=O)O)C(=O)N[C@@H](CCCCN)C(=O)N[C@@H](CCCNC(=N)N)C(=O)N[C@@H](CC(C)C)C(=O)N[C@@H](CCCNC(=N)N)C(=O)N[C@@H](CCCNC(=N)N)C(=O)N[C@@H](CCCCN)C(=O)N[C@@H](CC(N)=O)C(=O)N[C@H](C(=O)N[C@@H](Cc1c[nH]cn1)C(=O)N[C@@H](Cc1c[nH]c2ccccc12)C(=O)N1CCC[C@H]1C(=O)N[C@@H](CCC(=O)O)C(=O)N[C@@H](CCC(=O)O)C(=O)NCC(=O)N[C@@H](CCCCN)C(=O)N[C@@H](CC(C)C)C(=O)N[C@@H](CCCNC(=N)N)C(=O)N[C@@H](CCC(=O)O)C(=O)N[C@@H](Cc1ccc(O)cc1)C(=O)N[C@@H](Cc1ccccc1)C(=O)N[C@@H](Cc1ccc(O)cc1)C(=O)N[C@@H](Cc1ccccc1)C(=O)N[C@@H](CCC(=O)O)C(=O)N[C@@H](CC(C)C)C(=O)N[C@@H](CC(=O)O)C(=O)N[C@@H](CCC(=O)O)C(=O)N[C@@H](C)C(=O)N[C@@H](CCC(=O)O)C(=O)N[C@@H](CCCNC(=N)N)C(=O)N[C@H](C(=O)N[C@@H](CC(N)=O)C(=O)N[C@H](C(=O)O)C(C)C)C(C)C)C(C)C | HeLa and HEK-293T cells | phosphatase bead binding, competitive inhibitor, PIB pulldown iBAQ LC-MS/MS, refers to: PPP4R4 |  | concentration not given | reference: untreated control | log2 fold change | -0.08 |
| CCCCCCCC[C@H]1O[C@H]1C/C=C/C=C/[C@H](O)CC(=O)NC1=C[C@](C)(CC)OC1=O | Na(+)-translocating NADH-quinone reductase subunit B, whole Na+-NQR complex (nqrB, Vibrio cholerae serotype O1, UniProt Q9KPS2) | isothermal titration calorimetry |  | 20 °C, 50 µM |  | −TΔS | 15 kcal/mol |
| O=C(Nc1cccnn1)N1CCC(=Cc2cccc(Oc3ccc(C(F)(F)F)cn3)c2)CC1 | Sigma non-opioid intracellular receptor 1 (SIGMAR1, Homo sapiens, UniProt Q99720) | radioligand binding, inhibitor |  | 50 µM, human, added: [3H]haloperidol |  | inhibition | 46% |
| COc1ccc(N2C(=O)N(c3c(C)cccc3Cl)Cc3cnc(Nc4ccc(C5CCN(C)CC5)cc4OC)nc32)nc1 | Tyrosine-protein kinase Yes (YES1, Homo sapiens, UniProt P07947) | kinase activity, inhibitor |  | 0.5 µM, kinase YES |  | inhibition | 98% |
| [2H]c1c([2H])c([C@]2([2H])CCCN2C(=O)C(C)(C)Oc2ccc3cn[nH]c3c2)c([2H])c([2H])c1C([2H])([2H])[2H] | Tyrosine-protein kinase BTK (BTK, Homo sapiens, UniProt Q06187) | KINOMEscan |  | 1 µM | reference: DMSO control | remaining binding | 100% |
| C[C@H]1CN(c2n[nH]c3nc(N[C@H]4CC[C@H](NS(=O)(=O)CCC(F)(F)F)CC4)ncc23)CCO1 | Prohibitin 1 (PHB1, Homo sapiens, UniProt P35232) | competitor, Kinobeads competition | human cell extract | 0.8 µM | reference: vehicle | relative abundance | 1.08 |
| CC[C@H](C)[C@H](NC(=O)CNC(=O)[C@@H](N)CCCCN)C(=O)N[C@@H](CC(C)C)C(=O)N[C@@H](CCCCN)C(=O)N[C@@H](CCCNC(=N)N)C(=O)N[C@@H](CCC(=O)O)C(=O)N[C@@H](CCCCN)C(=O)N[C@@H](CCCNC(=N)N)C(=O)N[C@@H](CC(C)C)C(=O)N[C@@H](CCCNC(=N)N)C(=O)N[C@@H](CCCNC(=N)N)C(=O)N[C@@H](CCCCN)C(=O)N[C@@H](CC(N)=O)C(=O)N[C@H](C(=O)N[C@@H](Cc1c[nH]cn1)C(=O)N[C@@H](Cc1c[nH]c2ccccc12)C(=O)N1CCC[C@H]1C(=O)N[C@@H](CCC(=O)O)C(=O)N[C@@H](CCC(=O)O)C(=O)NCC(=O)N[C@@H](CCCCN)C(=O)N[C@@H](CC(C)C)C(=O)N[C@@H](CCCNC(=N)N)C(=O)N[C@@H](CCC(=O)O)C(=O)N[C@@H](Cc1ccccc1)C(=O)N[C@@H](Cc1ccccc1)C(=O)N[C@@H](Cc1ccccc1)C(=O)N[C@@H](Cc1ccccc1)C(=O)N[C@@H](CCC(=O)O)C(=O)N[C@@H](CC(C)C)C(=O)N[C@@H](CC(=O)O)C(=O)N[C@@H](CCC(=O)O)C(=O)N[C@@H](C)C(=O)N[C@@H](CCC(=O)O)C(=O)N[C@@H](CCCNC(=N)N)C(=O)N[C@H](C(=O)N[C@@H](CC(N)=O)C(=O)N[C@H](C(=O)O)C(C)C)C(C)C)C(C)C | HeLa and HEK-293T cells | phosphatase bead binding, competitive inhibitor, PIB pulldown iBAQ LC-MS/MS, refers to: PPP4R1 |  | concentration not given | reference: untreated control | log2 fold change | -0.15 |
| Oc1ccc2c3c1O[C@H]1[C@@H](O)CC[C@@]4(O)[C@@H](C2)N(CC2CCC2)CC[C@]314 | G-protein coupled receptor 182 (GPR182, Homo sapiens, UniProt O15218) | β-arrestin recruitment, TANGO luminescence, refers to: GPR182 |  | concentration not given | reference: basal luminescence | log2 fold change | 0.287 |
| CN1CCN(c2cc(-c3ccncc3)c(-c3ccc4ccccc4c3)nn2)CC1 | Nociceptin receptor (OPRL1, Homo sapiens, UniProt P41146) | agonist, FLIPR |  | 12.5 µM |  | activation | -3.1% |
| O=C(Nc1cnccc1Cl)N1CCN(Cc2ccc3c(c2)OC(F)(F)O3)CC1 | Vasopressin V1a receptor (AVPR1A, Homo sapiens, UniProt P37288) | radioligand binding |  | concentration not given |  | inhibition | -12% and -5% |
| O=C(c1ccc(Cl)cc1)N1CCN2C(=O)N(OC(=O)N3CCOc4ccccc43)C(=O)C2C1 (stereo not drawn) | Serine hydrolase RBBP9 (Homo sapiens, UniProt O75884) | enzyme activity, inhibitor, MS-based ABPP | SW-620 conditioned medium | 10 µM, 1 h, 37 °C | reference: compound over DMSO, lower = stronger inhibition | median ratio | 1.3 |
